Measurements collected from several papers.
Every numbered part comes from another study and shows a few of its results, in no order.

Sample 1
Target: Interferon regulatory factor 5, full length, phosphomimetic (IRF5, Homo sapiens, UniProt Q13568-2, residues 1-514, K96S/S451D/S453D/S456D/S462D)
Method: protein-binding microarray
Form: double-stranded DNA, one strand shown
Sample: in vitro
Concentration: 250 nM
Notes: 60-bp whole probe
With: salmon DNA 0.4 mg/ml
Baseline: random background probes
Reading: higher = stronger binding
Endpoint: log fluorescence
All sequences stand within: GCCTAGCAC … GTCTTGATTCGCTTGACGCTGCTG
Oligonucleotide = GACGGTTCCGACTTTCGGGACGTGCTA; value = 4.97 z-score
Oligonucleotide = TCATGTCTCAGAGTCCTACTGTGCTAG; value = -0.207 z-score
Oligonucleotide = TGAGGTATCGGTATCGGTTAGTGCTAG; value = 8.15 z-score
Oligonucleotide = GACGAACTGGGGTGTCGAGACGTGCTA; value = -0.527 z-score
Oligonucleotide = TTATATTTCGGGTATCGATTAGTGCTA; value = 7.62 z-score
Oligonucleotide = TTAGTACTGGACTATCGGTTAGTGCTA; value = 6.07 z-score
Oligonucleotide = ATGAAGTTCTTTTTTTCAAGGTGCTAG; value = 0.524 z-score
Oligonucleotide = CTAGTAGCCTAAGGCTACCGGTGCTAG; value = -0.446 z-score
Oligonucleotide = GACGGACTAGGTCTCGGGACGTGCTAG; value = -0.528 z-score
Oligonucleotide = TCAATTTTGCTTCTAGAACTGTGCTAG; value = 0.862 z-score
Oligonucleotide = GAGGGTTTCGACTTTCGGGACGTGCTA; value = 7.32 z-score
Oligonucleotide = TTAGGTTTCGGGACTAGGTTAGTGCTA; value = 6.27 z-score
Oligonucleotide = TATATTATATATTTATGTATGTGCTAG; value = 0.92 z-score
Oligonucleotide = GACGGCTTCGGGTATCGGGACGTGCTA; value = 0.482 z-score
Oligonucleotide = GACGGTTTCGTTATCCTGACGTGCTAG; value = 6.27 z-score
Oligonucleotide = TTAGATTTCGGGTTTCGACTAGTGCTA; value = 6.97 z-score
Oligonucleotide = TCCCCTCTAGGTTCTCTGAAAGTGCTA; value = -0.0123 z-score

Sample 2
Target: Protein C-ets-1 (ETS1, Homo sapiens, UniProt P14921, residues 1-441, Y397A, full length assumed)
Method: protein-binding microarray
Form: double-stranded DNA, one strand shown
Sample: in vitro
Concentration: not given
Notes: k-mer, scored over probes, only values ≥0.25
Reading: higher = stronger binding
Endpoint: E-score
Target sequence (chain): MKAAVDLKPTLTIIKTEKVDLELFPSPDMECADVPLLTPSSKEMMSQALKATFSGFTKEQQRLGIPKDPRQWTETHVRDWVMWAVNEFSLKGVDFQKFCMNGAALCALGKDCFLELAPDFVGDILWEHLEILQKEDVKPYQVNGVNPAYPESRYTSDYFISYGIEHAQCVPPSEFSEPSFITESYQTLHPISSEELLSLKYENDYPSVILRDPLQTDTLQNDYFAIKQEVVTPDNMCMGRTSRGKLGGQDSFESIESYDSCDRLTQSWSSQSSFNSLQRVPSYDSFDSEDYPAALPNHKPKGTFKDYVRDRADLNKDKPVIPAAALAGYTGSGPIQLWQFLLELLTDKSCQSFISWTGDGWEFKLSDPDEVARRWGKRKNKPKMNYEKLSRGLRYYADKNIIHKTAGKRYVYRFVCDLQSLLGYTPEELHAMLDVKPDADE
Oligonucleotide = CAATTTAC; value = 0.259
Oligonucleotide = ACCCGCGC; value = 0.285
Oligonucleotide = ACTGTACA; value = 0.263
Oligonucleotide = CCGCAAAA; value = 0.308
Oligonucleotide = ACGGACAA; value = 0.305
Oligonucleotide = ACCATTAA; value = 0.254
Oligonucleotide = GTTACAAA; value = 0.305
Oligonucleotide = GACAGGAA; value = 0.274
Oligonucleotide = ATACGGCA; value = 0.322
Oligonucleotide = ACTGTTTG; value = 0.265
Oligonucleotide = ACCGACAG; value = 0.277
Oligonucleotide = AGTTGTCA; value = 0.259
Oligonucleotide = ACAACAAT; value = 0.345
Oligonucleotide = GGAAGTAC; value = 0.318
Oligonucleotide = ACGTGACA; value = 0.262
Oligonucleotide = CCAAACAA; value = 0.252
Oligonucleotide = ACAATTGT; value = 0.342
Oligonucleotide = CATCCGAC; value = 0.26
Oligonucleotide = ACGGAAGT; value = 0.404
Oligonucleotide = ATTGTATA; value = 0.291
Oligonucleotide = CAGCAAAA; value = 0.27
Oligonucleotide = CGTCGCCA; value = 0.283
Oligonucleotide = CAATGTCG; value = 0.261
Oligonucleotide = GGCATGCC; value = 0.264
Oligonucleotide = ACAATCAT; value = 0.353

Sample 3
Target: Histone acetyltransferase KAT6A, winged helix 1, GST fusion (KAT6A, Homo sapiens, UniProt Q92794, residues 1-85)
Method: protein binding microarray
Form: double-stranded DNA, one strand shown
Sample: in vitro
Concentration: not given
Notes: 8-mer, flanks averaged, mean of 2 arrays, mostly near background
Baseline: not given
Reading: higher = stronger binding
Endpoint: E-score
Construct (chain): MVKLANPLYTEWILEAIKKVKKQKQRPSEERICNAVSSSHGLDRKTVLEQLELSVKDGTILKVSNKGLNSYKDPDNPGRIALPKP
Oligonucleotide = CACCGCCC; value = 0.173
Oligonucleotide = CATATTCC; value = -0.0564
Oligonucleotide = ACATATAA; value = -0.12
Oligonucleotide = CACAAGAA; value = -0.142
Oligonucleotide = GGCACAAA; value = 0.075
Oligonucleotide = CGTCGCCA; value = 0.186
Oligonucleotide = CGCATAGC; value = 0.354
Oligonucleotide = ATACCTAC; value = -0.0115
Oligonucleotide = CGAAGAAC; value = 0.0146
Oligonucleotide = ACCAAACA; value = -0.0478
Oligonucleotide = AAGGAATA; value = -0.0409
Oligonucleotide = GTCAGTTA; value = -0.017
Oligonucleotide = ACCAGTGG; value = -0.177
Oligonucleotide = ACGAACGG; value = 0.224
Oligonucleotide = CTAAGTAA; value = -0.000375
Oligonucleotide = GATCCTTA; value = -0.278
Oligonucleotide = ACGTACCA; value = -0.179
Oligonucleotide = GATGACAA; value = -0.0638
Oligonucleotide = ATTGTAGC; value = 0.0533

Sample 4
Target: Centromere-binding protein 1, full length, His-tagged (CBF1, Saccharomyces cerevisiae, UniProt P17106, residues 1-351)
Sequence of UniProt P17106 (whole entry, looked up): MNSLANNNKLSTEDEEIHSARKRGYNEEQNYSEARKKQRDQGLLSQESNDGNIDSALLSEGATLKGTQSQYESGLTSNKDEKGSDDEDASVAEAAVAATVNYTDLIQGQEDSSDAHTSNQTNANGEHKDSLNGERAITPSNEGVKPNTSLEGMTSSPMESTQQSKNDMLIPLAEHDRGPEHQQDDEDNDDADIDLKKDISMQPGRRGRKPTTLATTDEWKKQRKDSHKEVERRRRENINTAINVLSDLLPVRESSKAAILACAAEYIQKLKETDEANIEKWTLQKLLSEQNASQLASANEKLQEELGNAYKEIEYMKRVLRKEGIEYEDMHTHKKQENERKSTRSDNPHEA
Method: competition protein-binding microarray
Form: double-stranded DNA, one strand shown
Sample: in vitro
Concentration: 2 µM
Notes: whole 60-bp probe, lowest competitor level
With: Pho4 competitor, 0.05 µM
Reading: higher = stronger binding
Endpoint: fluorescence intensity
Oligonucleotide = CTGCGCCCGCCGTAGACCGTGACAAGGAAGCTCACCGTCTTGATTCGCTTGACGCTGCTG; value = 85.3 a.u.
Oligonucleotide = CTAACGAAGGTTTGTCACATAACTTACAAGCCAAGTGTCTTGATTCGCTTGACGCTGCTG; value = 81.5 a.u.
Oligonucleotide = ATATCCAACATTTGGCCCGTGATGGCTTAAGCGACTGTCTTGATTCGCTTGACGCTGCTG; value = 178 a.u.
Oligonucleotide = CTTTCCCGATCTTGTTTAGTGGGTGTAGCACATTTGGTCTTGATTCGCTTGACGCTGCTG; value = 79.4 a.u.
Oligonucleotide = GTAAGAACTCAGCTTCCCGTGAGGATGGTTCTAATGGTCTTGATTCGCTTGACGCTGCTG; value = 69.4 a.u.
Oligonucleotide = TTTAAAAGATGAAAGCACGTTACAAGCCTCTTCTTAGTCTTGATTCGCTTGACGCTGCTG; value = 117 a.u.
Oligonucleotide = CATACCCAACCTTGCTCAGTGGGTGAAGATATTTGTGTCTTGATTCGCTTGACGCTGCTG; value = 74.2 a.u.
Oligonucleotide = CTAACGAAGGTTTGTCACTCTACTTACAAGCCAAGTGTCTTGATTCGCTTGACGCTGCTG; value = 68.2 a.u.
Oligonucleotide = CTTTCCCGATCTTGGGAGGTGGGTGTAGCACATTTGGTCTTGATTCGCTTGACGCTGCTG; value = 67.1 a.u.
Oligonucleotide = GGCAAGGGGGGGGATGACACGGGCGGCTCTGGTTGGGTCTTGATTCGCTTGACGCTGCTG; value = 161 a.u.
Oligonucleotide = CTAACGAAGGTTTTTCACGTGCTATACAAGCCAAGTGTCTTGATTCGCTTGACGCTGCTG; value = 1060 a.u.
Oligonucleotide = AAACAAACCCTTACCCACGTGGCCGTATGGCTATGTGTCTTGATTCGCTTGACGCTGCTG; value = 917 a.u.
Oligonucleotide = CATACCCAACCTTGACATGTGGGTGAAGATATTTGTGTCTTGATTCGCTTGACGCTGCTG; value = 94.2 a.u.
Oligonucleotide = CTTGCCTACATATATTTCGTGCGATTTCAAAAATAAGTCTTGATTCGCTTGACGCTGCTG; value = 101 a.u.
Oligonucleotide = TTCTGTATTCCGGCGCAGGTGATGAACTTGATTACGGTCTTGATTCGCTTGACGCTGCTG; value = 145 a.u.
Oligonucleotide = CTTTCCCGATCTTGCATAGTGGGTGTAGCACATTTGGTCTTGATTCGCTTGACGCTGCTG; value = 63.3 a.u.
Oligonucleotide = ATGAAATGCTGGAATCACCTGACTCACAAAACTGGGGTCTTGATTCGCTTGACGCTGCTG; value = 1690 a.u.
Oligonucleotide = CCATATTTTCTTTGGCGTGTGCCAAGATCTTGTTGTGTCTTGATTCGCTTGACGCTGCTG; value = 82.3 a.u.
Oligonucleotide = TCCTCACAGATCTGCCACGTGGCTGTGCGGCTGACCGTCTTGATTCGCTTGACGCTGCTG; value = 843 a.u.

Some of these lines once more (sample 2):
Oligonucleotide = ACTGTTTG; value = 0.265
Oligonucleotide = ACCGACAG; value = 0.277
Oligonucleotide = AGTTGTCA; value = 0.259
Oligonucleotide = ACAACAAT; value = 0.345
Oligonucleotide = GGAAGTAC; value = 0.318
Oligonucleotide = ACGTGACA; value = 0.262
Oligonucleotide = CCAAACAA; value = 0.252
Oligonucleotide = ACAATTGT; value = 0.342
Oligonucleotide = CATCCGAC; value = 0.26
Oligonucleotide = ACGGAAGT; value = 0.404
Oligonucleotide = ATTGTATA; value = 0.291
Oligonucleotide = CAGCAAAA; value = 0.27
Oligonucleotide = CGTCGCCA; value = 0.283
